# Measurements collected from several papers.
# A part holds a random share of what one study measured. Changes are numbered by the printed parent chain.

# Study 1
# Target: Ras GTPase-activating protein-binding protein 1, full length (G3BP1, Homo sapiens, UniProt Q13283)
# Chain of UniProt Q13283 (whole entry, looked up): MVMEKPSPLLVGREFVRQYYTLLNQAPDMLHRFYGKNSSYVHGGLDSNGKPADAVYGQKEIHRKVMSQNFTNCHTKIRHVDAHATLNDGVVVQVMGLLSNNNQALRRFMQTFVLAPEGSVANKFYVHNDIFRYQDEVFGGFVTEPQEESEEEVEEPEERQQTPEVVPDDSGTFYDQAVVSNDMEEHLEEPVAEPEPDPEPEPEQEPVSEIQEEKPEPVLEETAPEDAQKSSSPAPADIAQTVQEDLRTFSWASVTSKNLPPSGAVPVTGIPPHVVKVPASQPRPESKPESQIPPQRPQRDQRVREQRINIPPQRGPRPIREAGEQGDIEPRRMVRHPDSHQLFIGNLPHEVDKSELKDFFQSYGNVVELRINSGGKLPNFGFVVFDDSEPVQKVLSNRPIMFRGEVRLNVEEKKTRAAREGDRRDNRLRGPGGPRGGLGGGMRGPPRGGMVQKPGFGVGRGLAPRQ
# Method: RNA Bind-n-Seq
# Form: RNA
# Medium: in vitro
# Concentration: 200 nM
# Setting: whole 134-nt RNA, ends assumed
# Together with: 150 mM LiCl
# Baseline: input library
# Direction: higher = stronger binding
# Library: 7-deaza-guanosine replaces G
# All sequences stand within: GGGAGUUCUACAGUCCGACGAUC … UGGAAUUCUCGGGUGUCAAGG
Strand,log2 enrichment
UUCCUCAAGUCCUGUGCUACACAUCGUAUGUACCGAAUCGGAGGAGGAGGGAAAGUAUUAUGUUACGCCGUUCGGAUCUGCACUUCCAGC,-1.65
CACAGACAACACGCACCCACACAGACACAGAGGGAAGGGGUUGGGAUGGGGACAGGGUGCACAGCAGGGCGGGGUAGGACAAAAGCCCCU,-0.787
UGUGCUACACAUCGUAUGUACCGAAUCGGGAAAAAAAGGGGAAAAAAAGGGGAAAAAAAGGGGAAAGUAUUAUGUUACGCCGUUCGGAUC,0.671
CAAGUCCUGUGCUACACAUCGUAUGUACCGAAUCGGAAAAGGGAAAAGGGAAAAGGAAAGUAUUAUGUUACGCCGUUCGGAUCUGCACUU,-1.08
AAGUCCUGUGCUACACAUCGUAUGUACCGAAUCGGGUUUUUUUGGGAGGGAAAGGGAAAGUAUUAUGUUACGCCGUUCGGAUCUGCACUU,0.181
CUGUGCUACACAUCGUAUGUACCGAAUCAAAUUUUUUUAAACCCCCCCAAACCCCCCCAAAAAAGUAUUAUGUUACGCCGUUCGGAUCUG,0.0271
CACAGACAACACGCACCCACACAGACACAGAGGGAAGGGGUUGGGAUGGAGACAGGGUGCACAGCAGGGCGGGGUAGGACCCCAGCCCCU,0.427
AAGUCCUGUGCUACACAUCGUAUGUACCGAAUCGGGUGGGUUUUUGGGAAAAAGGGAAAGUAUUAUGUUACGCCGUUCGGAUCUGCACUU,0.247
UUCCUCAAGUCCUGUGCUACACAUCGUAUGUACCGAAUCGGAGGUGGAGGAAAGUAUUAUGUUACGCCGUUCGGAUCUGCACUUCCAGCA,-1.55

# Study 2
# Target: ABI1, truncated, D143A, DHFR fusion (Arabidopsis thaliana)
# Method: DHFR PCA, deep sequencing
# Medium: yeast
# Setting: methotrexate growth selection, single substitutions
# Together with: (+)-ABA 0.032 µM
# Baseline: wild-type fitted maximum
# Direction: higher = stronger binding
# Parent: PYL1, truncated, DHFR fusion (Arabidopsis thaliana); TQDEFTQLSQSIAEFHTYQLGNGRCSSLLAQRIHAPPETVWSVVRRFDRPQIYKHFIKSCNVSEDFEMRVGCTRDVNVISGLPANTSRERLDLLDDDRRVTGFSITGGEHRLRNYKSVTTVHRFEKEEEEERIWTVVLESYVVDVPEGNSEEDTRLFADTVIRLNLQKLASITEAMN
Variant,relative binding score
N61R,47.6%
V78P,-0.126%
T120H,-5.93%
P83I,-1.83%
Q2L,60.3%

# Study 3
# Target: CCNB2, cyclin fold, Cln2 fusion (human)
# Method: yeast growth competition, sequencing
# Medium: yeast
# Setting: weak parent motif
# Baseline: not given
# Direction: higher = stronger binding
# Parent: E2F1 docking peptide (human); PPVKRRLDLETDH
Variant,normalised enrichment score
PPVKRRLDLETDA [H13A],0.199
PWVKRRLDLETDH [P2W],0.095
PPVKRRLDLEQDH [T11Q],0.463
PPDKRRLDLETDH [V3D],-0.381
PPVKRRLTLETDH [D8T],0.939
PFVKRRLDLETDH [P2F],0.926
PPVKRHLDLETDH [R6H],0.361

# Mixed results
Substance,target,test,test system,setting,scale,endpoint,result
"PhoQ, residues 284 288 289 292 302 303 TGYLSA","PhoP, residues 12 14 15 18 19 TPWLV (Escherichia coli, UniProt P23836)","Sort-seq, measured: YFP reporter",E. coli,"PhoQ-PhoP variant library, together with: 10 µM Mg2+","baseline: high Mg2+ state, higher = stronger signaling",fold induction,15.6
